Measured values gathered from unrelated publications.
Several values in a cell are separate wells, animals, samples, runs or records. Numbers after ± are the reported error.
Chain of UniProt P11712 (whole entry, looked up): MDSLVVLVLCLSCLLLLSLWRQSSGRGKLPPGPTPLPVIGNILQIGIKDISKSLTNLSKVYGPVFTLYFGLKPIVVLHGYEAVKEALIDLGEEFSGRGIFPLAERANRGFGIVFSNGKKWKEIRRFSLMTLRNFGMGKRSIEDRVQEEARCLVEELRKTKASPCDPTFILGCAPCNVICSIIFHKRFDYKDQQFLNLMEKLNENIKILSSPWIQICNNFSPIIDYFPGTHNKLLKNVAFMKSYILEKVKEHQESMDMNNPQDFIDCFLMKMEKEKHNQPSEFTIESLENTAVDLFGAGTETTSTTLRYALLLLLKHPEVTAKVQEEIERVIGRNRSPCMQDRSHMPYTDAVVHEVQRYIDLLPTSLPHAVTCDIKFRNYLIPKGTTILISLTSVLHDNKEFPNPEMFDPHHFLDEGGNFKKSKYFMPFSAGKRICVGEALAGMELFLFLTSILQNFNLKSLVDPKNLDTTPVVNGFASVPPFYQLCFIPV
Chain of UniProt O75469 (whole entry, looked up): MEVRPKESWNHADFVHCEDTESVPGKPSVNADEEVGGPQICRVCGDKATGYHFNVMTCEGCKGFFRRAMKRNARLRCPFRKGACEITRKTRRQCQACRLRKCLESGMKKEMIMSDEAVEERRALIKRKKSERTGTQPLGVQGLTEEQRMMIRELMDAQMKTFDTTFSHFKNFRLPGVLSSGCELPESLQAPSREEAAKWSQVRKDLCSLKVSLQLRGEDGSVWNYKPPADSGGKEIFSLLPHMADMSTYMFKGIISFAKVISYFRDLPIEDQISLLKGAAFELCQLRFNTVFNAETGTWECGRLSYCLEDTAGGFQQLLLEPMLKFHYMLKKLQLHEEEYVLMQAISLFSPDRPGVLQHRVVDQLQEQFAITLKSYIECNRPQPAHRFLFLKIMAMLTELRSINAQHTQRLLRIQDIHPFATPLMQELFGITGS

| Compound | tested on | assay | system | setting | scale | quantity | result |
| --- | --- | --- | --- | --- | --- | --- | --- |
| CC(C)OCCOCc1ccc(OCC(O)CN(N=O)C(C)C)cc1 (stereo not drawn) | Salmonella typhimurium | Ames test | TA1537 | 5000 µg/plate, without metabolic activation | baseline: solvent control | revertant fold increase | 0.4 fold |
| O=C1C2CC3CC1CC(C(=O)N1CCN(c4ccc([N+](=O)[O-])c5ncccc45)CC1)(C3)C2 | Salmonella typhimurium | Ames test | TA97a | 0.05 µg/well, without S9 | baseline: vehicle | revertant fold increase | 1 |
| CNC(=O)C1CCCN(C(=O)C2CC3CCC2N3C(=O)[C@@H]2C[C@@H](O)CN2C(=O)NCc2cccc(Cl)c2F)C1 (mixture of isomers) | Cytochrome P450 2C9 (CYP2C9, Homo sapiens, UniProt P11712) | preincubation with NADPH | human | 50 µM | baseline: negative control | remaining activity | 99.7% and 118% and 97.4% |
| CC[C@H](C)[C@H](NC(=O)C[C@H](NC(=O)CN1CCN2CCN(CC1)CC(=O)[O][Al]([18F])[O]C(=O)C2)C(=O)O)C(=O)N[C@H]1CCc2cccc3c2N(C1=O)[C@H](C(=O)NCc1cn[nH]n1)C3 | MC-38 tumour model |  | host not given, muscle | 30 min, tumour-bearing |  | tracer uptake | 0.42 %ID/g |
| C=C(NC(=O)c1csc(-c2nc3c(cc2O)-c2nc(cs2)C(=O)NC(C(C)O)C(=O)NC(=C(C)OC)c2nc(cs2)C(=O)NC2c4nc(cs4)C(=O)NC(COC(=O)c4c5c6c(cccc6n4O)COC(=O)C(OC4CC(C)(O)C(N(C)C)C(C)O4)C2OC5)c2nc-3cs2)n1)C(N)=O (stereo not drawn) |  |  | ICR mice, Streptococcus pneumoniae ATCC 49169 infected, immunocompromised, blood | intravenous, 32 mg/kg/day twice daily |  | AUC(0-t) | 1730 ng·h/mL |
| CCN(CC)CC#CCNc1ccnc2cc(Cl)ccc12 | Salmonella typhimurium | mini-Ames test | TA100 | 250.0 µg/well, without S9 |  | revertants per well | 30 |
| N#C[C@@H]1CC(F)(F)CN1C(=O)CNC(=O)c1ccnc2c(NC(=O)CCOCCOCCOCCOCCOCCOCCNC(=O)[C@H](CCCCNC(=O)CN3CCN(CC(=O)[O-])CCN(CC(=O)[O-])CCN(CC(=O)[O-])CC3)NC(=O)CCCc3ccc(I)cc3)cccc12.[177Lu+3] | U-87 MG tumour model |  | host not given, bone | 24 h, tumour-bearing |  | tracer uptake | 1.38 %ID/g |
| O=c1c2ccccc2n(CC2CC2)c(=O)n1O | MDCK |  | Caco-2 | 10 µM |  | Papp A→B | 41.1 ×10⁻⁶ cm/s |
| N=C(N)NCCC[C@@H]1NC(=O)[C@H](CCCNC(=N)N)NC(=O)[C@@H](CCCNC(=N)N)NC(=O)[C@@H](CCCNC(=N)N)NC(=O)[C@@H](C(c2ccccc2)c2ccccc2)NC(=O)[C@@H](Cc2c[nH]c3ccccc23)NC(=O)[C@@H](C(c2ccccc2)c2ccccc2)NC1=O | HEKa | cell growth or viability, MTS |  | 200 µg/mL, 24 h |  | viability | 49% |
| N#C[C@@H]1CC(F)(F)CN1C(=O)CNC(=O)c1ccnc2c(NC(=O)[C@H](CCCCNC(=O)CCOCCOCCOCCOCCOCCOCCNC(=O)CN3CCN(CC(=O)[O-])CCN(CC(=O)[O-])CCN(CC(=O)[O-])CC3)NC(=O)CCCc3ccc(I)cc3)cccc12.[177Lu+3] | U-87 MG tumour model |  | host not given, muscle | 72 h, tumour-bearing |  | tracer uptake | 0.09 %ID/g |
| COCC1CN(C2CCN(c3cc(OC)c(Nc4ncc(Br)c(Nc5ccc6c(c5P(C)(C)=O)OCCO6)n4)cc3C)CC2)C1 |  |  | EGFR-mutant NSCLC patients, plasma | oral, 150 mg single dose, median |  | Tmax | 4.01 h |
| COc1cccc(OC)c1-c1cc(C(=O)NC2(C(=O)O)C3CC4CC(C3)CC2C4)nn1-c1ccc(C(=O)NCCNC(=O)[C@H](CCCCNC(=O)[C@H](CC(C)C)NC(=O)C2OC2C(=O)O)NC(=O)CN2CCN(CC(=O)[O-])CCN(CC(=O)[O-])CCN(CC(=O)[O-])CC2)cc1C(C)C.[177Lu+3] (mixture of isomers) | HT-29 tumour model |  | host not given, blood | 24 h, tumour-bearing |  | tracer uptake | 0.56 %ID/g |
| N#C[C@@H]1CC(F)(F)CN1C(=O)CNC(=O)c1ccnc2c(NC(=O)[C@@H](N)CCCCNC(=O)CCOCCOCCOCCOCCOCCOCCNC(=O)CN3CCN(CC(=O)[O-])CCN(CC(=O)[O-])CCN(CC(=O)[O-])CC3)cccc12.[177Lu+3] | U-87 MG tumour model |  | host not given, stomach | 4 h, tumour-bearing |  | tracer uptake | 0.14 %ID/g |
| CC[C@H](C)[C@H](NC(=O)[C@H](Cc1ccccc1)NC(=O)[C@H](CCC(=O)O)NC(=O)[C@H](CCCCN)NC(=O)[C@H](C)NC(=O)[C@H](C)NC(=O)[C@H](CCC(N)=O)NC(=O)CNC(=O)[C@H](CCC(=O)O)NC(=O)[C@H](CC(C)C)NC(=O)[C@H](Cc1ccc(O)cc1)NC(=O)[C@H](CO)NC(=O)[C@H](CO)NC(=O)[C@@H](NC(=O)[C@H](CC(=O)O)NC(=O)[C@H](CO)NC(=O)[C@@H](NC(=O)[C@H](Cc1ccccc1)NC(=O)[C@@H](NC(=O)CNC(=O)[C@H](CCC(=O)O)NC(=O)[C@H](C)NC(=O)[C@@H](N)Cc1c[nH]cn1)[C@@H](C)O)[C@@H](C)O)C(C)C)C(=O)N[C@@H](C)C(=O)N[C@@H](Cc1c[nH]c2ccccc12)C(=O)N[C@@H](CC(C)C)C(=O)N[C@H](C(=O)N[C@@H](CCCCN)C(=O)NCC(=O)N[C@@H](CCCN=C(N)N)C(=O)NCC(=O)O)C(C)C | DPP-4 (recombinant) | substrate, LC-MS |  | 500 µM, 4 h |  | remaining peptide | 76% |
| N#Cc1ccnc(N2C(=O)CC[C@H]2C(=O)N(c2cc(F)cc(F)c2)[C@H](C(=O)NC2CC(F)(F)C2)c2ccccc2Cl)c1 (stereo in doubt) | Nuclear receptor subfamily 1 group I member 2 (NR1I2, Homo sapiens, UniProt O75469) | reporter gene, agonist |  | 10 µM | baseline: rifampicin | activation | 70% |
| CN1CCCNC(=O)c2cccc(c2)C(=O)NCCCN(C)CCCNc2cccc3c2C(=O)c2cccc(c2C3=O)NCCC1 | Ca9-22 | CCK-8 |  | 0.15 µM, 48 h | baseline: untreated | viability | 58.7% |
| CC(C)Cc1ccc(C(C)C(=O)N[C@@H](CCCCNC(=O)CCOCCOCCOCCOCCOCCOCCNC(=O)CN2CCN(CC(=O)[O-])CCN(CC(=O)[O-])CCN(CC(=O)[O-])CC2)C(=O)Nc2cccc3c(C(=O)NCC(=O)N4CC(F)(F)C[C@H]4C#N)ccnc23)cc1.[177Lu+3] (stereo partly drawn) | U-87 MG tumour model |  | host not given, tumour | 1 h, tumour-bearing |  | tracer uptake | 22 %ID/g |
| O=C1NC2(CC2)COc2ncc(F)cc2[C@H]2COCCN2c2ccn3ncc1c3n2 | Salmonella typhimurium | Ames test | TA102 | 1500 µg/plate, 48 h, together with: without S9 |  | revertant colonies | 388 ± 5 revertants/plate |
